Results pooled from the literature.
Protocols differ between the studies behind these lines.
Matrix: plasma

SMILES = Cc1ccsc1C(=O)Nc1cc(CN2CCN(C(=O)CO)CC2)ccc1/C=C/c1n[nH]c2ccccc12; system = human; setting = oral, 50 mg/day, patients; Vd/F = 19.7 L
SMILES = O=C(c1nc2n(n1)[C@H](c1ccccc1)C[C@@H]2F)C1CC1; system = human; setting = oral, 75 mg, single dose, fasted, healthy volunteers; Vd/F = 92.3 L
SMILES = N#Cc1ccc(-c2cnc3ccc(-c4ccc(C(=O)N5CCOCC5)cc4)cn23)cc1; system = human; setting = oral, 10 mg, single dose, fed, healthy volunteers; Vd/F = 13.3 L
SMILES = CCOc1ccc(Cc2cc([C@]34OC[C@](CO)(O3)[C@@H](O)[C@H](O)[C@H]4O)ccc2Cl)cc1; system = human; setting = oral, 15 mg, single dose, healthy volunteers; Vd/F = 305 L
SMILES = CCOc1ccc(Cc2cc([C@@H]3S[C@H](CO)[C@@H](O)[C@H](O)[C@H]3O)c(OC)cc2C)cc1; system = human; setting = oral, 5 mg/day, multiple doses; Vd/F = 39.3 L
SMILES = CCCC[C@H](NC(C)=O)C(=O)N[C@H]1CCC(=O)NC[C@@H](C(=O)N[C@@H](Cc2c[nH]c3ccccc23)C(N)=O)NC(=O)[C@H](CCCNC(=N)N)NC(=O)[C@@H](Cc2ccccc2)NC(=O)[C@H](Cc2c[nH]cn2)NC1=O; system = human; setting = subcutaneous, 1 mg, single dose, healthy volunteers; Vd/F = 171 L
SMILES = COc1cccc(-c2ccc(NC(=O)C3=C(C(=O)O)CCC3)c(F)c2)c1; system = male human; setting = oral, 10 mg, single dose, fasted, healthy volunteers; Vd/F = 9.36 L
SMILES = O=C(c1cccnc1-c1ccncc1)N1CCC(O)(Cc2ccccc2)CC1; system = human; setting = oral, 400 mg, multiple doses, once daily, healthy volunteers; Vd/F = 713 L

Some of these lines once more:
SMILES = O=C(c1nc2n(n1)[C@H](c1ccccc1)C[C@@H]2F)C1CC1; system = human; setting = oral, 75 mg, single dose, fasted, healthy volunteers; Vd/F = 92.3 L
